Measured values collected from several papers.
Compare with care: the assays were run in different laboratories.
MTNR1B: Melatonin receptor type 1B (MTNR1B, Homo sapiens, UniProt P49286)
Chain of UniProt P49286 (whole entry, looked up): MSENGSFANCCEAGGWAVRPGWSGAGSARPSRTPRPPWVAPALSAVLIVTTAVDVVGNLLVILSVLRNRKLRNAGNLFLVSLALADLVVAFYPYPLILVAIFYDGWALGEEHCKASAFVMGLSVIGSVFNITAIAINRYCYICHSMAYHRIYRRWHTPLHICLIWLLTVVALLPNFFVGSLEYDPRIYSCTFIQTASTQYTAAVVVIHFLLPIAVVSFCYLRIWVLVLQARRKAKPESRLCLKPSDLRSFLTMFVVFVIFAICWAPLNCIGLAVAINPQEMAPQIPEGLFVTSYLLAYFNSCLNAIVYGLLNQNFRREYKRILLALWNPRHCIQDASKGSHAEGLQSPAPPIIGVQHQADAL
Chain of UniProt P41145 (whole entry, looked up): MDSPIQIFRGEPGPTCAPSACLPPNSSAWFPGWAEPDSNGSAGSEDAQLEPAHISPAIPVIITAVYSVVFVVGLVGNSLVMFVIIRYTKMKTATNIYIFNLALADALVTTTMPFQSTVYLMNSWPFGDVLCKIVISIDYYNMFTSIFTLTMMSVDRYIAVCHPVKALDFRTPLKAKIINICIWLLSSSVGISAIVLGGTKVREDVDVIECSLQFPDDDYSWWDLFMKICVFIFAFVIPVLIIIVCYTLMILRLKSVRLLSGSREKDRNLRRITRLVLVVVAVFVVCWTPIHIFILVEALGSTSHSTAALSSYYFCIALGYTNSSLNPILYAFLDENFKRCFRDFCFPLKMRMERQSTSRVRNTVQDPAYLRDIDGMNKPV
Chain of UniProt Q9BWU1 (whole entry, looked up): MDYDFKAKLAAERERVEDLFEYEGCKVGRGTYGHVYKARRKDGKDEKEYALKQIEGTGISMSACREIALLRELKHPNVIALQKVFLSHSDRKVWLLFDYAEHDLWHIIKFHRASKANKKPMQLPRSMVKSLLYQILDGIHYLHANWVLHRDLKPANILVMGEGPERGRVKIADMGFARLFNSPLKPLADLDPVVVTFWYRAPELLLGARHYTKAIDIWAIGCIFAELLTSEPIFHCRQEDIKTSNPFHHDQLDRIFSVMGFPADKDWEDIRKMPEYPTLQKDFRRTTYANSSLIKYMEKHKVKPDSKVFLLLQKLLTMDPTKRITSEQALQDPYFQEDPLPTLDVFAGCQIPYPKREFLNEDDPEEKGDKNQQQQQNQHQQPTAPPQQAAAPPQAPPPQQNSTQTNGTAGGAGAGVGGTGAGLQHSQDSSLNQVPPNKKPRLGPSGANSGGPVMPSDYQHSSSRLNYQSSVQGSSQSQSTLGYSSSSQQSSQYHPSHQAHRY
Chain of UniProt P16234 (whole entry, looked up): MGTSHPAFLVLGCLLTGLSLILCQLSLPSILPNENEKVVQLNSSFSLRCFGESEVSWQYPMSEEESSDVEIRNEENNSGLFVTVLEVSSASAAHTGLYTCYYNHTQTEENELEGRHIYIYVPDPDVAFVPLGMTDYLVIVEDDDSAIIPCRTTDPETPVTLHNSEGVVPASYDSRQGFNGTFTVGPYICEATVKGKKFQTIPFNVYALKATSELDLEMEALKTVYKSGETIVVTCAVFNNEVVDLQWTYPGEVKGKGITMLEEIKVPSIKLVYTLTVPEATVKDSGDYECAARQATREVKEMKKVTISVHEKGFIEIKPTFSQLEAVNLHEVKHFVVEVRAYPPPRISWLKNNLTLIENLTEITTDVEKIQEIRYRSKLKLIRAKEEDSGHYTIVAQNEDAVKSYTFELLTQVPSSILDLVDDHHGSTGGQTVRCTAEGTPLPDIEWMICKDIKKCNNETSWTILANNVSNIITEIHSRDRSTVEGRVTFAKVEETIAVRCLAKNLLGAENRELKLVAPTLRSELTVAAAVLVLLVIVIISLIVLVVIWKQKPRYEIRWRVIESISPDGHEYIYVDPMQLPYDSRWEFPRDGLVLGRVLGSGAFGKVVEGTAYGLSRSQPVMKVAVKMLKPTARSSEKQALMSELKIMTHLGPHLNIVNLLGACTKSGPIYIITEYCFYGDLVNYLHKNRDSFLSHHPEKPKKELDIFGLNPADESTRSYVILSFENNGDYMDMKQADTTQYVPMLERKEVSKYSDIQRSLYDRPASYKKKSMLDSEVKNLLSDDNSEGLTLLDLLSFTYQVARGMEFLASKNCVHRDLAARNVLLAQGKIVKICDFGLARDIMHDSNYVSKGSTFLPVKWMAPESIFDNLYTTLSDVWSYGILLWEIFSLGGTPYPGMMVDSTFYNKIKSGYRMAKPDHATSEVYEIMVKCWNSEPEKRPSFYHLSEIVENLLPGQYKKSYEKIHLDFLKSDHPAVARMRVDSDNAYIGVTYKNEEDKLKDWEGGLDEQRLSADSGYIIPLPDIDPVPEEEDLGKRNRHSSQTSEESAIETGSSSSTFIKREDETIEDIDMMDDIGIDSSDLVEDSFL
Chain of UniProt P51451 (whole entry, looked up): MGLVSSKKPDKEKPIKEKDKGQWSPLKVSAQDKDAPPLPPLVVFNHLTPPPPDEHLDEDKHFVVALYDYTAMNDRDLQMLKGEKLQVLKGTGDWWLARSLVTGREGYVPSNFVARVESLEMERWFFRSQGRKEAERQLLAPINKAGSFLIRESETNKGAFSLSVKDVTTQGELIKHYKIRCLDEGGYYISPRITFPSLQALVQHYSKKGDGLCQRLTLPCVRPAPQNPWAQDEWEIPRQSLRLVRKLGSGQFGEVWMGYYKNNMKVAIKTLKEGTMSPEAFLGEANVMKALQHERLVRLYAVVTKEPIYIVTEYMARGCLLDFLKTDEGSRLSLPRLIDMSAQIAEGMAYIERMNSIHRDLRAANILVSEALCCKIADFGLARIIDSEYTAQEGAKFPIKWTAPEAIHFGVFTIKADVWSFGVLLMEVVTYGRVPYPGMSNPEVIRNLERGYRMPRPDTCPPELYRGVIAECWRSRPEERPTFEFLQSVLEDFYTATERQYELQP
Chain of UniProt Q8NE63 (whole entry, looked up): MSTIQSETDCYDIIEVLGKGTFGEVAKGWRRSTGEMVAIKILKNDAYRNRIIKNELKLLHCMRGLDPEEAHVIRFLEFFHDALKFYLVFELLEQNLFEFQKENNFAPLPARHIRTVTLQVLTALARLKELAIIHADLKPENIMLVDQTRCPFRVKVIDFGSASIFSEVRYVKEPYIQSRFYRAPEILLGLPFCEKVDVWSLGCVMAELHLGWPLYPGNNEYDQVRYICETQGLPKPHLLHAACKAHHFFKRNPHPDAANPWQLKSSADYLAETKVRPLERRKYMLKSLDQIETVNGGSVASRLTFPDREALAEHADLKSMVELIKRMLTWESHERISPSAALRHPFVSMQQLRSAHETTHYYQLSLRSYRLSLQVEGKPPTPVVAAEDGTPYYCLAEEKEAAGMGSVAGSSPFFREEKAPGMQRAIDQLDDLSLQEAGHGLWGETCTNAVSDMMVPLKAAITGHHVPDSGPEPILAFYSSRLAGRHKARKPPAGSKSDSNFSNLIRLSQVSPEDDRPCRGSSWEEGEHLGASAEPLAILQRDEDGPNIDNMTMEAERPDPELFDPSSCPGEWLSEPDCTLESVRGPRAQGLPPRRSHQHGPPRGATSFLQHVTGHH
Chain of UniProt P09769 (whole entry, looked up): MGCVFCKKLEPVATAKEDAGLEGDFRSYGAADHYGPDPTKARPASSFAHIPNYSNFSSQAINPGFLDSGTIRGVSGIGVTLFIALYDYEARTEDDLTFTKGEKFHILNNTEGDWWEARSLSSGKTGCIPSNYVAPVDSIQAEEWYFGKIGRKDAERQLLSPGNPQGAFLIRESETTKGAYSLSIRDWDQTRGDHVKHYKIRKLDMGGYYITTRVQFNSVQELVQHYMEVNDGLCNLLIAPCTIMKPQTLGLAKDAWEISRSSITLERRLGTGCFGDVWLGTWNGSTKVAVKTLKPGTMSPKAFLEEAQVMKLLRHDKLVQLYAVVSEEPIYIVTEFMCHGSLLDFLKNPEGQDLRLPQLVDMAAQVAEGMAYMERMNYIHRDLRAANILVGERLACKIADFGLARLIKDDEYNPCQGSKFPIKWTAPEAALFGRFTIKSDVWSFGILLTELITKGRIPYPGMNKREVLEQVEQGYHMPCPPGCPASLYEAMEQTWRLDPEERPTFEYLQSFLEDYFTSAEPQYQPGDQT

CNc1ncc2c(/C=C/C(=O)N3CCC(OC)CC3)nn(Cc3cccc(C(F)(F)F)c3)c2n1
remaining activity (HIPK4 (Homo sapiens, UniProt Q8NE63); enzyme activity, inhibitor, radiometric; 1 µM): 108%

C=CC(=O)N1CCC(COCC(=O)N2CCN(c3nc(-c4cnc(N)nc4C(F)F)nc(N4CCOC[C@@H]4C)n3)CC2)CC1
remaining binding (BLK (Homo sapiens, UniProt P51451); binding, competition with immobilised ligand; 1 µM): 86%

COc1cc(-c2cncc3c2CN(C)Cc2cc(N4CCNCC4)ccc2-3)cc(OC)c1OC
remaining activity (FGR (Homo sapiens, UniProt P09769); enzyme activity, inhibitor; 1 µM): 93%

Cc1cc([C@@H](C)Nc2ccccc2C(=O)O)c2nc(N3CCC(F)(F)CC3)c(C#N)c(=O)n2c1
remaining binding (PRKACA (Homo sapiens, UniProt P17612); binding, competition with immobilised ligand; 10 µM): 83%

CN(C)c1ncc(F)c(-c2cnn3ncccc23)n1
remaining binding (CDK19 (Homo sapiens, UniProt Q9BWU1); binding; 1 µM): 100%

Nc1ncnc2occ(-c3ccc(NC(=O)Nc4cc(C(F)(F)F)ccc4F)cc3)c12
remaining signal (Receptor-type tyrosine-protein kinase FLT3, autoinhibited (FLT3, Homo sapiens, UniProt P36888); cell-free assay, inhibitor; 20 µM): 0.1%

COc1cc2c(CCNC(C)=O)c(I)[nH]c2cc1[N+](=O)[O-]
Emax (MTNR1B; cAMP, agonist, TR-FRET; CHO-K1; 20 min): 92%

CCCCC(=O)Nc1ccc(-c2ccc3ncn(CCC)c(=O)c3c2)cn1
remaining binding (PDGFRA (Homo sapiens, UniProt P16234); binding, competition with immobilised ligand; 0.5 µM): 100%

NC/C(=C\F)COc1cccc(Cn2c(=S)[nH]c(=O)c3[nH]cnc32)c1
inhibition (OPRK1 (Homo sapiens, UniProt P41145); ligand displacement, radioligand; 10 µM): < 50%

COc1cc2c(CCNC(C)=O)c[nH]c2cc1I
Emax (MTNR1B; cAMP, agonist, TR-FRET; CHO-K1; 20 min): 98%

C1=C/COCc2cc(ccc2OCCN2CCCC2)Nc2nccc(n2)-c2cccc(c2)COC/1
remaining binding (CILK1 (Homo sapiens, UniProt Q9UPZ9); binding; 0.1 µM): 29%

For quick reference, copied from above:
CN(C)c1ncc(F)c(-c2cnn3ncccc23)n1
remaining binding (CDK19 (Homo sapiens, UniProt Q9BWU1); binding; 1 µM): 100%
